Measurements from different studies.
Compare with care: the assays were run in different laboratories. Values joined by “and” are separate records of one study, mostly repeats; a detail may differ. ± marks the error that the study gave.

`C=CCNc1c(O)cc2c(O)c1C[C@@H](C)C[C@H](OC)[C@H](O)[C@@H](C)/C=C(\C)[C@H](OC(N)=O)[C@@H](OC)/C=C\C=C(/C)C(=O)N2`: “treatment-emergent adverse events” 16% (measured: first-degree AV block; patients with unresectable or metastatic GIST, STS or other tumours; intravenous, 400 mg/m^2).
`Clc1ccc(Cl)c(-c2cc(Cl)ccc2Cl)c1` gave an organ weight of 0.43 g (Sprague Dawley rat, spleen; intraperitoneal, 1 mg/kg).
`COc1ccc(-c2c(-c3ccc(C#N)c(F)c3)nc(N3CCC(N)CC3)n(C)c2=O)cc1F`: “serious adverse event incidence” 0% (measured: Abdominal pain; human patients; oral, 60 mg, dose expansion).
`CC[C@H](C)[C@@H]1NC(=O)[C@@H]2CSSC[C@H](NC(=O)[C@H](CCCNC(=N)N)NC(=O)[C@@H]3CSSC[C@H](NC1=O)C(=O)N[C@@H]([C@@H](C)O)C(=O)N[C@@H](CCCNC(=N)N)C(=O)NCC(=O)N[C@@H](Cc1ccccc1)C(=O)N3)C(=O)N[C@@H](CC(C)C)C(=O)N[C@H]1CSSC[C@H](NC(=O)[C@H](C(C)C)NC(=O)CNC(=O)[C@H](CCCNC(=N)N)NC(=O)[C@H](CCCNC(=N)N)NC1=O)C(=O)N[C@@H](CCCNC(=N)N)C(=O)N2` — result for “focal thrombosis score”: 1 to 2 (Sprague-Dawley rats, female, lung; 5 mg/kg; direction not given).
`O=C(O)CCCOc1ccc(F)cc1-c1cc(-c2ccccc2C(F)(F)F)n(-c2ccccc2)n1` gave an organ weight of 0.017 ± 0.0018 g (measured: thyroid; Crl:CD(SD) rats, female; iv, 25 µg/kg, 1 day).
For `CCN1[C@@H](C(=O)NC23CCC(C(=O)O)(CC2)CC3)[C@H](c2cccc(Cl)c2F)[C@]2(C(=O)Nc3cc(Cl)ccc32)C12CCCCC2`, the Fatigue incidence was 9.1% (patients with advanced solid tumours; oral, 100 mg).
`[O-][S+]1CCc2nc(N3CCC(c4ncc(Cl)cn4)CC3)nc(NC3(CO)CCC3)c21` (stereo not shown) — result for “adverse event incidence”: 0% (measured: Diarrhoea; healthy male humans; 48 mg single dose).
For `O=S(=O)([O-])C(F)(F)C(F)(F)C(F)(F)C(F)(F)C(F)(F)C(F)(F)C(F)(F)C(F)(F)F.[K+]`, mRNA level read “increased” (RT-qPCR, measured: Pxr; mouse, ethanol-fed, liver; dose not given; baseline: efavirenz).
`[Cl][212Pb][Cl]` gave a tissue uptake of 4.47 ± 0.89 %ID/g (athymic mice, C4-2 xenograft, blood; intravenous, 2 h, 212Pb-labelled).
`CCCCCCCCCCCCCCCC(=O)N[C@@H](CCC(=O)NCCCC[C@H](NC(=O)[C@H](CC(=O)O)NC(=O)[C@H](CO)NC(=O)[C@@H](NC(=O)[C@H](Cc1ccccc1)NC(=O)[C@@H](NC(=O)CNC(=O)[C@H](CCC(N)=O)NC(=O)[C@H](CO)NC(=O)[C@@H](N)Cc1c[nH]cn1)[C@@H](C)O)[C@@H](C)O)C(=O)N[C@@H](CO)C(=O)N[C@@H](CCC(=O)O)C(=O)N[C@@H](Cc1ccc(O)cc1)C(=O)N[C@@H](CC(C)C)C(=O)N[C@@H](CC(=O)O)C(=O)N[C@@H](CO)C(=O)N[C@@H](CCC(=O)O)C(=O)N[C@@H](CCCNC(=N)N)C(=O)N[C@@H](C)C(=O)N[C@@H](CCCNC(=N)N)C(=O)N[C@@H](CC(=O)O)C(=O)N[C@@H](Cc1ccccc1)C(=O)N[C@H](C(=O)N[C@@H](C)C(=O)N[C@@H](Cc1c[nH]c2ccccc12)C(=O)N[C@@H](CC(C)C)C(=O)N[C@@H](CCC(=O)O)C(=O)N[C@@H](C)C(=O)NCC(=O)NCC(=O)O)C(C)C)C(=O)O`: “treatment-related adverse events” 28.6% (measured: Nausea; humans CrCl 45 to 60 mL/min; subcutaneous, 100 µg single dose).
`CC[C@H](C)[C@H](NC(=O)[C@H](Cc1ccccc1)NC(=O)[C@H](CCC(=O)O)NC(=O)[C@H](CCCNC(=N)N)NC(=O)[C@H](C)NC(=O)[C@H](C)NC(=O)[C@H](CCC(N)=O)NC(=O)[C@H](CCC(=O)O)NC(=O)[C@H](CCC(=O)O)NC(=O)[C@H](CC(C)C)NC(=O)[C@H](Cc1ccc(O)cc1)NC(=O)[C@H](CO)NC(=O)[C@H](CO)NC(=O)[C@@H](NC(=O)[C@H](CC(=O)O)NC(=O)[C@H](CO)NC(=O)[C@@H](NC(=O)[C@H](Cc1ccccc1)NC(=O)[C@@H](NC(=O)CNC(=O)[C@H](CCC(=O)O)NC(=O)[C@H](C)NC(=O)CCc1cnc[nH]1)[C@@H](C)O)[C@@H](C)O)C(C)C)C(=O)N[C@@H](C)C(=O)N[C@@H](Cc1c[nH]c2ccccc12)C(=O)N[C@@H](CC(C)C)C(=O)N[C@H](C(=O)N[C@@H](CCCNC(=N)N)C(=O)NCC(=O)N[C@@H](CCCNC(=N)N)C(=O)N[C@@H](CCCCNC(=O)COCCOCCNC(=O)COCCOCCNC(=O)CC[C@H](NC(=O)CCCCCCCCCCCCCCCCC(=O)O)C(=O)O)C(=O)NCC(=O)NCC(=O)N[C@@H](CO)C(=O)N[C@@H](CCCCNC(=O)[C@H](CCCCNC(=O)[C@H](CCCCNc1c(NCCCCCN(O)C(=O)CCC(=O)NCCCCCN(O)C(=O)CCC(=O)NCCCCCN(O)C(C)=O)c(=O)c1=O)Nc1c(NCCCCCN(O)C(=O)CCC(=O)NCCCCCN(O)C(=O)CCC(=O)NCCCCCN(O)C(C)=O)c(=O)c1=O)NC(=O)[C@H](CCCCNc1c(NCCCCCN(O)C(=O)CCC(=O)NCCCCCN(O)C(=O)CCC(=O)NCCCCCN(O)C(C)=O)c(=O)c1=O)Nc1c(NCCCCCN(O)C(=O)CCC(=O)NCCCCCN(O)C(=O)CCC(=O)NCCCCCN(O)C(C)=O)c(=O)c1=O)C(=O)O)C(C)C` [zirconium-89 labelled] gave a tissue uptake of 0.023 %ID/g (ex vivo gamma counting; male Sprague-Dawley rats, brain; intravenous, 1 nmol, 24 h).
`COc1cc2c(Oc3ccc4[nH]c(C)cc4c3F)ccnc2cc1OCC1(N)CC1`: “grade 1 or 2 Hematuria” 0% (paediatric recurrent refractory sarcoma; 8 mg).
`CCCCCOc1ccc(-c2ccc(-c3ccc(C(=O)N[C@H]4C[C@@H](O)[C@@H](OCC[N+](C)(C)C)NC(=O)[C@@H]5[C@@H](O)[C@@H](C)CN5C(=O)[C@H]([C@@H](C)O)NC(=O)[C@H]([C@H](O)[C@@H](O)c5ccc(O)cc5)NC(=O)[C@@H]5C[C@@H](O)CN5C(=O)[C@H]([C@@H](C)O)NC4=O)cc3)cc2)cc1` gave an alkaline phosphatase of 168 U/L (adult ICU patients, mITT, serum; dose not given, day 14).
`C[C@]1(CO)Cc2ncn(-c3ccc(C#N)c(Cl)c3)c2C(=O)O1` — result for “drug-related Dizziness incidence”: 0% (Japanese subjects; 80 mg single dose).
With `CN(C(=O)n1cnc(-c2ccc[n+]([O-])c2)c1)C1CCCCC1` the concentration was 103.5 ± 1 nM (culture medium without cells; 100 nM, 3 h).
`C=CC(=O)N1CC[C@H](n2nc(C#Cc3cc(OC)cc(OC)c3)c3c(N)ncnc32)C1` has a serum phosphate of 5.27 mg/dL (human patients, serum; oral, dose not given, QD, before phosphate binder start, together with: phosphate binder for ≥2 cycles).
`CN(C)C1(CNC(=O)c2ccc3c(c2)CCN3C(=O)c2ccccc2)CCOCC1` — result for “unbound plasma concentration”: 2650 nM (C57BL/6 mice, male, plasma; intraperitoneal, 50 mg/kg, 30 min).
With `COc1c(O)cc(O)c2c(=O)cc(-c3ccccc3)oc12` the Tmax was 3.3 ± 1.4 h (Sprague Dawley rat, plasma; oral, 3.34 g lyophilized powder/kg, low dose).
`CC[C@H](C)[C@H](N)C(=O)N[C@@H](CCCNC(=N)N)C(=O)N[C@H](C(=O)N[C@@H](Cc1c[nH]c2ccccc12)C(=O)N[C@@H](CCCCN)C(=O)N[C@@H](CCCCN)C(=O)N[C@@H](Cc1ccccc1)C(=O)N[C@H](C(=O)N[C@@H](CCCNC(=N)N)C(=O)N[C@@H](CCCCN)C(=O)N[C@@H](CCSC)C(=O)N[C@@H](CCCCN)C(=O)N[C@@H](C)C(=O)N[C@H](C(=O)N[C@@H](Cc1ccc(O)cc1)C(=O)N[C@@H](Cc1c[nH]cn1)C(N)=O)[C@@H](C)CC)C(C)C)C(C)C` — result for “elution acetonitrile content”: 45.6% (reversed-phase UPLC; C18 column, TFA).
For `NC(=O)[C@H]1CCN(c2ncnc(N)c2F)C[C@@H]1N1CCC[C@@H](Nc2cc(Cl)cc(C(F)(F)F)c2)C1=O`, “grade ≥3 neutropenia” read 67% (B-cell malignancy patients; oral, 20.5 mg twice daily, dose).
`Cn1c(-c2ccc(C(N)=O)cc2F)nnc1C(C)(C)Oc1c(F)cc(Cl)cc1F` — result for “general disorder TEAE”: 33.3% (human; oral, 30 mg, single ascending dose, incl. administration site).
`C[C@@H](NC(=O)N1C(=O)[C@H](Cc2ccnc(N)c2)[C@H]1C(=O)O)C1CCCCC1` — result for “incidence of AEs excluding prolonged aPTT”: 62.5% (healthy adult Chinese volunteers; continuous intravenous infusion, 2.25 mg/kg/h, 5-day infusion, CTCAE 5.0 grading).
The Cmax of `CC(=O)c1c(C)c2cnc(Nc3ccc(C4CCN(CCS(C)(=O)=O)CC4)cn3)nc2n(C2CCCC2)c1=O` is reported as 188 ng/mL (human patients, plasma; oral, 75 mg twice daily, day 1 single dose, together with: fulvestrant).
`O=S(=O)(Nc1ccccc1)c1ccc(NC(=S)Nc2ccccc2)cc1`: “blood chemistry level” 9.77 mg/dL (measured: Ca; female mouse, blood; oral, 20 mg/kg daily, 14 days).
For `Cn1cc(-c2nc(N[C@@H]3CCCC[C@@H]3N)c(F)c3c2C(=O)NC3)cn1`, “hemorrhagic adverse events” read 17% (measured: Gastrointestinal haemorrhage; patients with relapsed or refractory AML; oral, 80 mg twice daily).
For `COc1ccc2nc3cc(Cl)ccc3c(Nc3cc(CN4CCCC4)c(O)c(CN4CCCC4)c3)c2n1`, “mean corpuscular volume” read 44.6 fL (mouse, blood; intraperitoneal, 14 mg/kg).
The mortality of `C=C(CN(C(=O)c1c(C(F)F)nn(C)c1F)C1CC1)c1ccc(Cl)cc1Cl` is reported as 10% (static acute toxicity test; zebrafish (Brachydanio rerio); 1.00 mg a.i./L, 24 h).
Under “subjects with decreased appetite”, `O=C(Nc1ccccc1)C1CCN(C(=O)Oc2cccnc2)CC1` is recorded as 7.1% (adverse event reporting; healthy women; oral, 60 mg, 7 days).
With `CN1CCN(S(=O)(=O)c2cc([N+](=O)[O-])ccc2N(CCOS(C)(=O)=O)CCOS(C)(=O)=O)CC1` the hemoglobin was 164 g/L and 150 g/L and 160 g/L (NOD/SCID mouse, naive, blood; intraperitoneal, 6.3 mg/kg, week 1).
For `CC(C)C[C@H](NC(=O)[C@H](CCCCN)NC(=O)OCC1c2ccccc2-c2ccccc21)C(=O)N[C@H](C(=O)N[C@@H](Cc1ccccc1)C(=O)N[C@@H](Cc1ccccc1)C(=O)N[C@@H](CCCCN)C(=O)NCC(=O)N[C@@H](Cc1ccccc1)C(=O)N[C@@H](C)C(=O)N[C@@H](Cc1c[nH]c2ccccc12)C(=O)N[C@@H](CC(N)=O)C(=O)N[C@H](C(=O)N[C@H]1CSSC[C@@H](C(=O)N[C@@H](Cc2c[nH]cn2)C(=O)N[C@@H](CCCNC(=N)N)C(=O)N[C@@H](CCCNC(=N)N)C(=O)N[C@@H](C)C(=O)N[C@@H](CC(N)=O)C(N)=O)NC(=O)[C@H](C(C)C)NC(=O)[C@H](CCCNC(=N)N)NC(=O)[C@H](C(C)C)NC(=O)CNC(=O)[C@H](CC(N)=O)NC(=O)[C@H](CCCNC(=N)N)NC(=O)[C@H](Cc2ccc(O)cc2)NC(=O)[C@H](C(C)C)NC1=O)C(C)C)C(C)C`, “secondary structure content” read 3.4% (circular dichroism, measured: Parallel; PBS; 80 µM, pH 7.4, together with: LTA 1 µM).
For `C[C@H]1CN(C(=O)CC#N)[C@]12CCN(c1ncnc3[nH]ccc13)C2`, “AUC at NOAEL” read 1540 ng·h/mL (dog, male; oral, 0.6 mg/kg repeated, 9 months).
Under “free drug concentration”, `COc1ncccc1-c1cnn2ccc(N3CCN(C(=O)OC(C)C)CC3)nc12` is recorded as 4.4 nM (rat, CCI mechanical allodynia model, plasma; oral, 1 mg/kg, 240 min).
`O=C(O)CNCP(=O)(O)O`: “milk fat partition ratio” 0.19 (cow whole milk; 200 nM; baseline: milk fat over skim milk).
For `CCNCCCNC/C=C\CNCCCNCC`, “serious TEAE, abdominal pain” read 6.5% (human, advanced solid tumours; intravenous, dose not given; baseline: patients).
For `Oc1ccc(CCc2cc(O)cc(O)c2)cc1`, the plasma concentration was 1140 nM (human, both sexes, plasma; median).
`CCc1ccc(CC/C=C/c2ccc3c(c2)C(=O)CC3)cc1` has a Reticulocyte percentage of 6.49% (Sprague-Dawley rat, male; oral, 30 mg/kg/day, 14 days).
For `CO[C@H]1C[C@@H]2CC[C@@H](C)[C@@](O)(O2)C(=O)C(=O)N2CCCC[C@H]2C(=O)O[C@H]([C@H](C)C[C@@H]2CC[C@@H](OC(=O)NCCOCCOCCOCCOCCOCCOCCOCCOCCC(=O)N3CCc4cc(Cn5nc(-c6ccc7oc(N)nc7c6)c6c(N)ncnc65)ccc4C3)[C@H](OC)C2)C[C@@H](O)[C@H](C)/C=C(\C)[C@@H](O)[C@@H](OC)C(=O)[C@H](C)C[C@H](C)/C=C/C=C/C=C/1C`, “incidence of Anemia TEAE” read 15.8% (patients with advanced solid tumours; intravenous, dose not given, grade ≥3).
